Published values of several laboratories.
Protocols differ between the studies behind these lines. ± marks the error that the study gave.

| Substance | target | assay | test system | conditions | how to read | quantity | value |
| --- | --- | --- | --- | --- | --- | --- | --- |
| Nc1nc2c(ncn2[C@@H]2O[C@@H]3COP(=O)(O)O[C@H]3[C@H]2O)c(=O)[nH]1 | cone cGMP-gated channel (Morone saxatilis) | ion current, agonist, inside-out patch clamp |  | endogenous modulator present, -40 mV |  | EC50 | 86 µM |
| CN(C)CCc1cc2cc(c1)CNC(=O)c1coc(n1)-c1coc(n1)-c1cccc(n1)-c1nc(co1)-c1nc(co1)C(=O)NC2 | human telomeric quadruplex d(TTAGGG)4 | UV melting |  | 20 µM, pH 7.5, together with: 150 mM K+ | baseline: DNA without compound | melting temperature shift | 28.1 °C |
| CCC/C=C/C=O | cysteine peptide Ac-RFAACAA-COOH | DPRA RapidFire-MS/MS |  | 24 h, pH 7.5, together with: 5.0 µM cysteine peptide |  | maximal peptide depletion | -28.1% |
| IINFEKL | ERAP1 human wild type | activator | peptide | 100 µM, pH 8.0, 27 °C, together with: L-AMC substrate |  | Vmax of L-AMC hydrolysis | 391 ± 6 nmol/min/µg |
| CCCCCCCCCCCCOC(=O)c1cc(O)c(O)c(O)c1 | cysteine peptide Ac-RFAACAA-COOH | peptide depletion, DPRA RapidFire-MS/MS |  | 24 h, pH 7.5, room temperature, together with: 5.0 µM cysteine peptide |  | IC50 | inactive |
| IINFEKE | ERAP1 human L734R | activator | peptide | 100 µM, pH 8.0, 27 °C, together with: L-AMC substrate |  | Hill coefficient | 1.5 |
| c1cnc2c(c1)ccc1cccnc12 | bovine lens protease | enzyme activity, inhibitor |  | 100 µM, 30 min preincubation, 37 °C |  | remaining activity | 59% |
| O=c1[nH]sc2ccccc12 | cysteine peptide Ac-RFAACAA-COOH | DPRA RapidFire-MS/MS |  | 24 h, pH 7.5, together with: 5.0 µM cysteine peptide |  | maximal peptide depletion | -110% |
| CC(=O)N[C@@H](CC(N)=O)C(=O)NCC(=O)N[C@@H](CCCCN)C(=O)N[C@@H](C)C(N)=O | Asn-Gly peptide isomerisation to succinimide | 1H NMR time course |  | pH 7.4, 55 °C |  | rate constant k1 | 0.232 h⁻¹ |

Some of these lines once more:
| Substance | target | assay | test system | conditions | how to read | quantity | value |
| --- | --- | --- | --- | --- | --- | --- | --- |
| IINFEKL | ERAP1 human wild type | activator | peptide | 100 µM, pH 8.0, 27 °C, together with: L-AMC substrate |  | Vmax of L-AMC hydrolysis | 391 ± 6 nmol/min/µg |
